Measured values of several laboratories.
A part holds a random share of what one study measured. Positions count from the first letter of the parent shown.

Block 1
Target: RING finger protein unkempt homolog, zinc fingers 1-6, SBP tag (UNK, Homo sapiens, UniProt Q9C0B0, residues 30-357)
Chain of UniProt Q9C0B0 (30-357, looked up): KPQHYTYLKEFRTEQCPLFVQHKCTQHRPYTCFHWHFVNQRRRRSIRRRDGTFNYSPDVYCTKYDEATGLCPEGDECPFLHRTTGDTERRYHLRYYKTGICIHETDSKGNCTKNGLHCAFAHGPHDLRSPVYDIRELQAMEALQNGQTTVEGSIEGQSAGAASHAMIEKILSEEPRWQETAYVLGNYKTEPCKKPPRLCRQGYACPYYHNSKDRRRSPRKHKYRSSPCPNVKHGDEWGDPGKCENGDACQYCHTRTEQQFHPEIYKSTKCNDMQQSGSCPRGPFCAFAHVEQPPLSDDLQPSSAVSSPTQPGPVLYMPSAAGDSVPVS
Technique: RNA Bind-n-Seq
Form: RNA
Medium: in vitro
Tested at: 100 nM
Setting: RNA with constant flanks, vertebrate orthologous sites, ends assumed
Reference: input RNA pool
Reading: higher = stronger binding
With `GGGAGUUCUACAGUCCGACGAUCCUGUGUGUGGUGCAGCGUGCUCUGUACCAGUGCUCACCAUCCCUUCAUAUCAACUGUCCCUAGUUAUAGCAGUUUAAUAUUUUUAAAAGUUUUACAUUGCUGUAUAUUCAAAGAUUUGUUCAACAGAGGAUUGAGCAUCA` the bound/input enrichment was 0.395 ratio.
With `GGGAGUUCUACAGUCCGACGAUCCAGCUGAUUCACUUAUUGGGAGAGCUGCACAUAUUGCUGUUCUUGAUUCAGAAAUAUUUUUAGAAAAAUUCUUUCUGGUGGCUGCUCUAAAAUAUUUCCAGUAGCAUAAAAGCAUUGUUACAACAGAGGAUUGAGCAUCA` the bound/input enrichment was 0.656 ratio.
`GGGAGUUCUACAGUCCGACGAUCAGGGAGAAGAACUCACAAACUGAAAGGAAAACUAUUAAAGAGUUUCUAAUAGUUAAAAGCUAGGAAAGAUUAGGACUUUACAAAUGAGAAAUUAAAAAUAAAAGGAAAAGGAUAGGGAAACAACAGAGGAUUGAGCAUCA` has a bound/input enrichment of 0.561 ratio.
`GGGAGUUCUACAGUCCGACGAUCACCUAAUUUCUAGGACUUAAGCCAACAAUUCUAAAAUAUUUGUUUGUGUAAGUCUGUACAUAGUAAUGCCAACCUCAUUGUUCCAAGGGUUUUUUCCCGUGUGUUUGGGGUUUUGUUUUGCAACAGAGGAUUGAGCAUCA` has a bound/input enrichment of 0.252 ratio.
`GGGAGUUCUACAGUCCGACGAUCUAUGUAGAGAACAUUUUUCAUUGACCCUCCCCCUACUGUGAAAGUCCCUAGCAGUUUAUUUAGAAUCUUAAUUUUUCUAAUUCAGGCUCAUUGUAUUAGUCAUUUUUAGCCCAGAAUUAACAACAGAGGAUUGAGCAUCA` gave a bound/input enrichment of 4.63 ratio.
`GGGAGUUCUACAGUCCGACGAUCCUGUUGUUAAGCACUGUGUUCCAGACCAUGUCUGACUUUAGUGUAACCUAGGAGAUUUUAUAGUUUUAUUUUAAUGAACUCCUGCUUGACGCAGAGCAGUGGGGAGAGCAGUGUCCUCUGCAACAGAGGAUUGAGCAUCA` has a bound/input enrichment of 2.37 ratio.

Block 2
Target: Prothrombin, mature alpha-thrombin (F2, Homo sapiens, UniProt P00734)
Technique: aptamer microarray, sandwich
Form: DNA with 2'F-ANA
Medium: in vitro
Tested at: 200 nM
Setting: whole 15-mer aptamer, many near background
With: Cy3 exosite-II aptamer, 400 nM
Reading: higher = stronger binding
Oligonucleotide: GGTTGGTGTGGTTGG
`2'F-ANA at 1 2 4 5 7 8 9 11 13 14`: “mean fluorescence intensity” 83.9 a.u.
Under “mean fluorescence intensity”, `2'F-ANA at 1 6 7 8 11` is recorded as 161 a.u.
`2'F-ANA at 2 3 6 8 13 15` — result for “mean fluorescence intensity”: 590 a.u.
For `2'F-ANA at 1 3 4 5 6 7 12 13 14`, “mean fluorescence intensity” read 47.4 a.u.
Under “mean fluorescence intensity”, `2'F-ANA at 2 3 4 8 9 10 12 13` is recorded as 248 a.u.
For `2'F-ANA at 5 7 8 10 15`, “mean fluorescence intensity” read 46.7 a.u.
`2'F-ANA at 3 4 6 9 10 11` — result for “mean fluorescence intensity”: 235 a.u.
For `2'F-ANA at 2 3 5 7 15`, “mean fluorescence intensity” read 105 a.u.
`2'F-ANA at 3 5 9 11 12 15`: “mean fluorescence intensity” 182 a.u.
For `2'F-ANA at 3 4 5 6 7 8 9 12 13 14`, “mean fluorescence intensity” read 62.7 a.u.
Under “mean fluorescence intensity”, `2'F-ANA at 1 8 10 14` is recorded as 73.3 a.u.
For `2'F-ANA at 1 2 3 5 6 8 10 11 12 13`, “mean fluorescence intensity” read 84.3 a.u.
For `2'F-ANA at 5 8 9 12`, “mean fluorescence intensity” read 187 a.u.
Under “mean fluorescence intensity”, `2'F-ANA at 1 2 5 8 9 11 13` is recorded as 49.5 a.u.
For `2'F-ANA at 5 7 10 11 12 13 14 15`, “mean fluorescence intensity” read 61.5 a.u.
`2'F-ANA at 1 6 8 9 10 11 12`: “mean fluorescence intensity” 61.3 a.u.
`2'F-ANA at 1 4 5 6 8 9 10 11 12 15`: “mean fluorescence intensity” 82.4 a.u.

Block 3
Target: Histone acetyltransferase KAT6A, both winged helices, GST fusion (KAT6A, Homo sapiens, UniProt Q92794, residues 1-181)
Technique: protein binding microarray
Form: double-stranded DNA, one strand shown
Medium: in vitro
Tested at: not given
Setting: 8-mer, flanks averaged, mean of 2 arrays, mostly near background
Reference: not given
Reading: higher = stronger binding
Construct (chain): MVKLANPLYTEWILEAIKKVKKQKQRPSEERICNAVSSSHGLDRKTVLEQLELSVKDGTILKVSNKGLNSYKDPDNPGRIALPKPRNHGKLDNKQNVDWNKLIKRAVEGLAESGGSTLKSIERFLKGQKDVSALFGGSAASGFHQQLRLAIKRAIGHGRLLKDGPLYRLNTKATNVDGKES
For `AGTGCACC`, the E-score was -0.0986.
The E-score of `CTTACGGC` is reported as 0.268.
`GCGGTGAC` has an E-score of 0.239.
With `ACCCTACG` the E-score was -0.023.
`CCAAGTGA` gave an E-score of -0.222.
With `CCTTCACC` the E-score was 0.0818.
The E-score of `ATTGGAGG` is reported as -0.103.
`AGAGGGCG` has an E-score of 0.269.
With `ACTGAAAA` the E-score was -0.0932.
With `AATTGCGG` the E-score was 0.263.
For `CGAGACGA`, the E-score was -0.0373.
The E-score of `ATAGCCAT` is reported as -0.132.
The E-score of `GGCAAAGA` is reported as 0.0523.

Block 4
Target: CCND3, cyclin fold, Cln2 fusion (human)
Technique: yeast growth competition, sequencing
Medium: yeast
Setting: weak parent motif
Reference: not given
Reading: higher = stronger binding
Starting sequence: SLBP docking peptide (human); ARYKRKLLINDFG
For `ARYKRKWLINDFG [L7W]`, “normalised enrichment score” read 0.07.
For `ARYKRKLLIGDFG [N10G]`, “normalised enrichment score” read 0.225.
`ARYKRKLLINDFI [G13I]` — result for “normalised enrichment score”: 0.224.
`AYYKRKLLINDFG [R2Y]`: “normalised enrichment score” 0.291.
`ARYKRKLLIHDFG [N10H]` — result for “normalised enrichment score”: 0.0367.
For `ARYKRKLLINTFG [D11T]`, “normalised enrichment score” read 0.167.
For `APYKRKLLINDFG [R2P]`, “normalised enrichment score” read 0.174.
Under “normalised enrichment score”, `ARYKRKLLINDMG [F12M]` is recorded as 0.14.
Under “normalised enrichment score”, `TRYKRKLLINDFG [A1T]` is recorded as 0.214.
`ARYKHKLLINDFG [R5H]` — result for “normalised enrichment score”: 0.154.
Under “normalised enrichment score”, `ARYKRSLLINDFG [K6S]` is recorded as 0.0775.
`ADYKRKLLINDFG [R2D]` — result for “normalised enrichment score”: 0.21.
`ARYKRKCLINDFG [L7C]` — result for “normalised enrichment score”: 0.19.

Block 5
Target: Interferon regulatory factor 3, full length, phosphomimetic (IRF3, Homo sapiens, UniProt Q14653, residues 1-427, S386D/S396D/S398D/S402D/T404D/S405D)
Chain of UniProt Q14653 (whole entry, unmodified, looked up): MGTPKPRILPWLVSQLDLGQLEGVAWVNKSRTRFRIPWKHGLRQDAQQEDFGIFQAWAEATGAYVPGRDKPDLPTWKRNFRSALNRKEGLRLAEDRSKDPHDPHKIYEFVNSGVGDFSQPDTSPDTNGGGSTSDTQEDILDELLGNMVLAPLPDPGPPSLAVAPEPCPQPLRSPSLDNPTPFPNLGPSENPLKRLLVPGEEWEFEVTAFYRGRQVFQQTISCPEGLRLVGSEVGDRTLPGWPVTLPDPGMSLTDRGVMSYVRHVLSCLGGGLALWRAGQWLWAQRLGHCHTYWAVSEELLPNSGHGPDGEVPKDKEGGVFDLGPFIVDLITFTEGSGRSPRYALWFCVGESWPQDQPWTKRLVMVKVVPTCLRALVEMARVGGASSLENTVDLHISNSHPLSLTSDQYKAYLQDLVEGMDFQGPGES
Technique: protein-binding microarray
Form: double-stranded DNA, one strand shown
Medium: in vitro
Tested at: 2540 nM top
Setting: 60-bp whole probe
With: salmon DNA 0.4 mg/ml
Reference: random background probes
Reading: higher = stronger binding
Shared flanks, not repeated: GCCTAGCAC … GTCTTGATTCGCTTGACGCTGCTG
Under “fitted relative affinity”, `TCTACTTCTCTTTTGGCTTTGTGCTAG` is recorded as 1.36 z-score.
For `AGCTACTGAGTGGCAACACAGTGCTAG`, “fitted relative affinity” read -0.745 z-score.
Under “fitted relative affinity”, `GACGGTTACGACACTGGGGACGTGCTA` is recorded as -0.0325 z-score.
`TTTTGCTTTCATTTATTTACGTGCTAG` — result for “fitted relative affinity”: 4.3 z-score.
`GACGGTCTCCTTATCATGACGTGCTAG`: “fitted relative affinity” 2.79 z-score.
`TTAGGTTTCGTTTTCGGTTAGTGCTAG`: “fitted relative affinity” 9.02 z-score.
`TTAGGTCTAGGTTTCGGTTAGTGCTAG` — result for “fitted relative affinity”: 3.76 z-score.
Under “fitted relative affinity”, `TTAGACATCAGTTTCGATTAGTGCTAG` is recorded as 3.29 z-score.
`TTAGGTATCAGGTATCGGTTAGTGCTA` — result for “fitted relative affinity”: 2.52 z-score.
For `TAAGGTCTCGGTTTCGGTTAGTGCTAG`, “fitted relative affinity” read 5.33 z-score.
For `GACGGACTGGACTTTGGGGACGTGCTA`, “fitted relative affinity” read -0.897 z-score.
`TTAGTACTGGACTATCGGTTAGTGCTA` — result for “fitted relative affinity”: -0.113 z-score.

Block 6
Target: RNA binding protein fox-1 homolog 2, RRM domain, GST-SBP tag (RBFOX2, Homo sapiens, UniProt O43251-10, residues 100-194)
Technique: RNA Bind-n-Seq
Form: RNA
Medium: in vitro
Tested at: 365 nM
Setting: natural RNA segment, single round, ends assumed
Reference: no-protein control
Reading: higher = stronger binding
Target sequence (chain): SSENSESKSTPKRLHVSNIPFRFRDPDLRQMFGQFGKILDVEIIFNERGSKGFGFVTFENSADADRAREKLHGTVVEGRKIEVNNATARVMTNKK
`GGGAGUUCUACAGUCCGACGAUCGUAGGGAGUGUUUAGUGGACAAUAGUGUAGGUUAUGGAUGGAGGUGUCGGUACUAAAUUGAAUAACGAGUAAAUAAUCUUACUUGGGUAGAGAUGGCCUUUGCCAACAAAUGGAAUUCUCGGGUGCCAA` — result for “RBNS enrichment (R)”: 1.31.
Under “RBNS enrichment (R)”, `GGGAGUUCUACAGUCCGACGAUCAAUGCAAAAUGUAUUGCUUUUGAUAUUUCUAUUCUGAGAUGAACCAGUAGCAUGUAAUGCAACUGUUUGACAGUUUAACUCAAUUCAUGCUUCAAACUGUUUUAAUCAUCUGGAAUUCUCGGGUGCCAA` is recorded as 0.401.
Under “RBNS enrichment (R)”, `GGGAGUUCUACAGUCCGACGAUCCCACAUUAACUUCUCUGAUGCCUUAAAAGUGGACUUCUUUGAAGAACUUCUGUGCUAUUUUAUCACAGGCUCAUACCACAAUUGUUAAUAUCUGGAGAUGGAUGAUGAACUGGAAUUCUCGGGUGCCAA` is recorded as 0.443.
Under “RBNS enrichment (R)”, `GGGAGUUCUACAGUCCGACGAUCGUGUUCUGGAUAUGAAUGUAUGUACACUGAUGCUGCCCCCCUCUGUACAGCGGCUUGGCCUCUCACGAUCCAUUGUAUGGCUUUAUAAAUGAUAAAGUUACACAAACCCAUGGAAUUCUCGGGUGCCAA` is recorded as 0.703.
`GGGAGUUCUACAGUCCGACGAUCCUGAUUAUGUCUUCACAGACUGGCUCAGGUUCUUCACGAAGAAGAUGGCCUUUGUGGGAUUUAAUUCGGGGUUUGCUCAUCCCUUUACUUUAGGUGGAACUAUUUUCAGUUGGAAUUCUCGGGUGCCAA` — result for “RBNS enrichment (R)”: 0.31.
Under “RBNS enrichment (R)”, `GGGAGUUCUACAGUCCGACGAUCGAUCAGUUGACAGUGGCAAUAAACUGUAAAUAACUUGCCCUGGGGGCCUUUUUUUAAAAAACAAAACAAAUUCCCAAACCAUACUUGCUAAAAGUUCUGGUAAGUAUGUGUGGAAUUCUCGGGUGCCAA` is recorded as 0.474.
`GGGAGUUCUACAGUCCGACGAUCCAGGUAUUUUUCCCUUUGCAUUUUUAAAAAUACGUAUUUCUAAUUUGUUUGCAUAUUUAAUUUUGUCAAAGCUGAGAAAUGCUCAUGAGUUGAAUUUAUAAAUGUCAUUUUGGAAUUCUCGGGUGCCAA`: “RBNS enrichment (R)” 1.25.
`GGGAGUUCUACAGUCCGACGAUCCAUUUAGUAUUAUCAUAAAGUAUUAAUACUUUGUCAUAAAGUCCUCCUUGAGCCCAGGGACCAUGGAAGUCAGCUAGAAGAGCCCUGAGCAAGGAGCAAGGACUUGGGCUUGGAAUUCUCGGGUGCCAA` — result for “RBNS enrichment (R)”: 0.518.
`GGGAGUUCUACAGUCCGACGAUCUGCUCAGUGGGCCAUCCAUCCAACCUUUAACUUGAGAGCCUUUCCUGCAGCCUGGAGGUGUCCAAGGAUUCCCGUACAGUGACUGUGUCUCACCGCCCACAACCCUAUCGUGGAAUUCUCGGGUGCCAA` — result for “RBNS enrichment (R)”: 0.646.
`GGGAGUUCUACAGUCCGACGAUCGGCAGCACAGGACCACUUCAUGGCUGUCUAGUUAUGGUCCCUGGAGGGCUAUUUGCCCACCUUCACUCUCCCUGCCUUCCCUUCUGAGUUGUGGUAGAGCAAAGACCCACUGGAAUUCUCGGGUGCCAA` — result for “RBNS enrichment (R)”: 0.342.
For `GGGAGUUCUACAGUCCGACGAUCAGGAGGUGGGGAGCAAAGAGGGCAGCCUGACUAGAUGCCCCUGCUGAAUCUGGUACUUUCUGCACAGCCUUGAGUGAUUGGAGUCCCCUAAUGACUAAUAAACUUGAACAUGGAAUUCUCGGGUGCCAA`, “RBNS enrichment (R)” read 0.87.
`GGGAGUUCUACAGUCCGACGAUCGUAUACCCAUAAAGAAUGCUCAUAUUAAUGUACUUAAAUUACACAUGUAGAGCAUAUCUGUUAUAUGUUUAUGUAACUAUCAAAUGGUUAUUUGUUACUAAAGCUAUAUUUGGAAUUCUCGGGUGCCAA` — result for “RBNS enrichment (R)”: 0.373.
